{"data": "Experimental data of several laboratories", "note": "Numbered parts are unrelated; each lists some results of a single study. Substitutions count along the parent as printed."}
{"data": "Block 1", "target": "Interferon regulatory factor 7, full length, phosphomimetic (IRF7, Homo sapiens, UniProt Q92985, residues 1-503, S101K/S471D/S472D/S475D/S476D/S477D/S483D/S484D/S487D)", "technique": "protein-binding microarray", "form": "double-stranded DNA, one strand shown", "medium": "in vitro", "tested at": "250 nM", "notes": "60-bp whole probe", "added": "salmon DNA 0.4 mg/ml", "baseline": "random background probes", "reading": "higher = stronger binding", "all sequences stand within": "GCCTAGCAC … GTCTTGATTCGCTTGACGCTGCTG", "UniProt Q92985, sequence (whole entry, unmodified, looked up)": "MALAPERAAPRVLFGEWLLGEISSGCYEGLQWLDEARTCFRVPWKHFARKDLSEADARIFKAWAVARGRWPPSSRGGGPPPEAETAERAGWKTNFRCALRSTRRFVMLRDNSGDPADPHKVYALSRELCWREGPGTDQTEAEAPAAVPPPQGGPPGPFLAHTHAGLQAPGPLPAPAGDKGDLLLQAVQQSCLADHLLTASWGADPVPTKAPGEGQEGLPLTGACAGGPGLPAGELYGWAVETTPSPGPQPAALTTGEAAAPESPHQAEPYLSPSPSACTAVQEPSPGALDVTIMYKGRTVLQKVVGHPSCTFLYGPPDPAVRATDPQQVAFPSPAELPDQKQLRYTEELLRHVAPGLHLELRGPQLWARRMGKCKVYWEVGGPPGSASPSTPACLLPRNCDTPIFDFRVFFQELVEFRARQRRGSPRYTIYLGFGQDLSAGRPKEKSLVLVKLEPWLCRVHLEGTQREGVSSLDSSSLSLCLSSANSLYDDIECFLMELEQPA"}
{"Sequence": "TTAGGTTTCCTACTGCTTTCGTGCTAG", "log fluorescence [z-score]": 1.09}
{"Sequence": "GACGATCTCAGACTGAAGACGTGCTAG", "log fluorescence [z-score]": -0.145}
{"Sequence": "CTAGGTTTCGACACTGGGTTAGTGCTA", "log fluorescence [z-score]": 4.06}
{"Sequence": "AACGGTATCGGACTGGGGACGTGCTAG", "log fluorescence [z-score]": -0.0867}
{"Sequence": "ATAGGTATCGGACTGGGTTAGTGCTAG", "log fluorescence [z-score]": 0.277}
{"Sequence": "CTAGTTTTACTTTCTATCTCGTGCTAG", "log fluorescence [z-score]": 2.93}
{"Sequence": "TCATTTCTATTTTCTGAACTGTGCTAG", "log fluorescence [z-score]": 2.76}
{"Sequence": "TGCTTTTTAGAAATTTTTTTTGTGCTA", "log fluorescence [z-score]": 0.64}
{"Sequence": "TCACCTTCACCTCTCTGACTGTGCTAG", "log fluorescence [z-score]": 0.139}
{"Sequence": "TTCGGACTGCTACTGCTTTAGTGCTAG", "log fluorescence [z-score]": -0.604}
{"Sequence": "TCATTCCTCTTTTTTGTACTGTGCTAG", "log fluorescence [z-score]": 2.32}
{"Sequence": "ATAGGTCTCGGTATCGGTTAGTGCTAG", "log fluorescence [z-score]": 3.36}
{"Sequence": "TTAGGTTTCGACCCTGGGTTAGTGCTA", "log fluorescence [z-score]": 3.27}
{"Sequence": "GACGGTATCGGCTATCGGGACGTGCTA", "log fluorescence [z-score]": -0.518}
{"Sequence": "GACGAACTTAGACTGGAGACGTGCTAG", "log fluorescence [z-score]": -0.219}
{"Sequence": "ACTTTTTTTTTTCCCTGAAAGTGCTAG", "log fluorescence [z-score]": 1.38}
{"data": "Block 2", "target": "RNA binding protein fox-1 homolog 2, RRM domain, GST-SBP tag (RBFOX2, Homo sapiens, UniProt O43251-10, residues 100-194)", "technique": "RNA Bind-n-Seq", "form": "RNA", "medium": "in vitro", "tested at": "365 nM", "notes": "natural RNA segment, single round, ends assumed", "baseline": "no-protein control", "reading": "higher = stronger binding", "all sequences stand within": "GGGAGUUCUACAGUCCGACGAUC … UGGAAUUCUCGGGUGCCAA", "Construct (chain)": "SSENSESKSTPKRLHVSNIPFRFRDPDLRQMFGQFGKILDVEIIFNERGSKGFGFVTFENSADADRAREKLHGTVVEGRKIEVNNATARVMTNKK"}
{"Sequence": "AGGAACCUGGGGCUGAACAGGUUAUCCCUGUCAGGAGCCCUGGACUGGGCUGCAUCUCAGCCCCACCUGCAUGGUAUCCAGCUCCCAUCCACUUCUCACCCUUCUUUCCU", "RBNS enrichment (R)": 0.293}
{"Sequence": "GAGUAGGGGUGGGGACAAGGUACUUUCCCUCUCUCUGCCUUGUUUAUUUUGUACUGUAAUGAAUGUGAGUCACUCAGCUGCUUACCUGAACAUAACCUUAUGCUGCCCUU", "RBNS enrichment (R)": 0.611}
{"Sequence": "CCUAAGCCACAGCGACGCCUAUGUCAUUCGGAUCUGGGCUCCCCAAACGAGGACACGACGGCCAAGGUGGCAGUUUGUCCCACGGGAGGACAGUCGUUUCUUUUCCAGCC", "RBNS enrichment (R)": 0.366}
{"Sequence": "GGCUCCUUUUAGUUUGUUGUCUUGCCCUACUGUGUAGCUCACUGACUGAGAAUAAAGAAUACAGCAAGGCUGCCUUUGUCUUUGUUUUUCCUGGCUGUGUGUAGCUGUGG", "RBNS enrichment (R)": 1.59}
{"Sequence": "CACACAAAAAAAAUGCAGACAUCCUUGUGAAUUUUGAGUGCUUAUGGGGUCAUCUGGUUAUUUAGGGCAUUGAGACUGGAGCCGUGGCUCAGAUGAUUGGGGCAGAAAAG", "RBNS enrichment (R)": 1.49}
{"Sequence": "GGAAGAGUGACCUGGCAUCUUGGAAAUCAUUGUGUGUCUUCAGGAGAAUGUGCAGUGUCUUGUAACAACUAAUUAUAAUGCAAAUUAGGGCUACAUUGUAAUCUGCUUUG", "RBNS enrichment (R)": 2.53}
{"Sequence": "CGAGAAAGAGAAGGAUGUUGUGCCGGAAGGACCCGUGCAGGAAGCUGAAACUGAGCAUCUUGCACAGGGCUCCGAGACUGUACAGGCUACCCCAGAGAGCCUUGAAGUUC", "RBNS enrichment (R)": 0.287}
{"Sequence": "UGAUUCCUGUGGUGAGAAGGAAAGCUACAGGACCUGGAGAAGGGGAUGCAGAGGCAGGCCUGCUGACCAACUUGUUGCAAUCACAAAGGUGGGGGUCCUGGUGCAGGCAG", "RBNS enrichment (R)": 0.735}
{"data": "Block 3", "target": "CCNB3, cyclin fold, Cln2 fusion (human)", "technique": "yeast growth competition, sequencing", "medium": "yeast", "notes": "strong parent motif", "baseline": "not given", "reading": "higher = stronger binding", "starting sequence": "PKN2 docking peptide (human); VSAVRKLDFSDTM"}
{"Substitution": "L7G", "normalised enrichment score": -0.234}
{"Substitution": "R5L", "normalised enrichment score": 0.291}
{"Substitution": "T12P", "normalised enrichment score": 1.69}
{"Substitution": "F9C", "normalised enrichment score": 0.00866}
{"Substitution": "V4Q", "normalised enrichment score": 0.579}
{"Substitution": "D8Q", "normalised enrichment score": 1.05}
{"Substitution": "S2F", "normalised enrichment score": 1.2}
{"Substitution": "L7W", "normalised enrichment score": -0.109}
{"Substitution": "V4P", "normalised enrichment score": 0.392}
{"Substitution": "S2K", "normalised enrichment score": 1.13}
{"Substitution": "A3M", "normalised enrichment score": 0.424}
{"Substitution": "D8Y", "normalised enrichment score": 0.652}
{"Substitution": "K6F", "normalised enrichment score": 0.584}
{"Substitution": "D11G", "normalised enrichment score": 1.94}
{"Substitution": "F9N", "normalised enrichment score": 0.133}
{"Substitution": "D8M", "normalised enrichment score": 0.393}
{"Substitution": "L7S", "normalised enrichment score": 0.41}
{"Substitution": "K6C", "normalised enrichment score": 0.591}
{"data": "Block 4", "target": "Fragile X messenger ribonucleoprotein 1, C-terminal low-complexity region (Fmr1, Mus musculus, UniProt P35922)", "technique": "RNA Bind-n-Seq", "form": "RNA", "medium": "in vitro", "tested at": "200 nM", "notes": "whole 134-nt RNA, ends assumed", "added": "150 mM KCl", "baseline": "input library", "reading": "higher = stronger binding", "all sequences stand within": "GGGAGUUCUACAGUCCGACGAUC … UGGAAUUCUCGGGUGUCAAGG"}
{"Sequence": "GUCCUGUGCUACACAUCGUAUGUACCGAAUCGGGGUGGGGUUUGGGGAAAAAAAGGGGAAAGUAUUAUGUUACGCCGUUCGGAUCUGCAC", "log2 enrichment": 0.44}
{"Sequence": "UGGGAGGUGGAUUUUGUUUACUUUUUUAGCUCAUUUCCAGGGGUGGGAAUUUUUUUUUAAUAUGUGUCAUGAAUAAAGUUGUUUUUGAAA", "log2 enrichment": 0.415}
{"Sequence": "UCCUGUGCUACACAUCGUAUGUACCGAAUCGGGCCCCCCGGCCCCCCGGGGCCCCCCGGAAAGUAUUAUGUUACGCCGUUCGGAUCUGCA", "log2 enrichment": 0.147}
{"Sequence": "GCAGGAAGUAAAAACAAAUGGAAAUGCUUAGGAUAGUGGCAGGGGUGGGGGUUGCUAAGGAAAGGGUGGGAUGGGAGUGGGUAAAGAGUU", "log2 enrichment": 0.135}
{"Sequence": "UGUAUCCCUGUUUCUUUUCUCCCUACAGAAACAUAUGAGGAUUUUGAUACCAGGAUACUUGAGGUAGGCAUGCAGAAUUAAAUACCUGGU", "log2 enrichment": 0.26}
{"Sequence": "CCUGUGCUACACAUCGUAUGUACCGAAUCGGGGUUUUUUUGGGGUUUGGGGAAAAAGGGGAAAGUAUUAUGUUACGCCGUUCGGAUCUGC", "log2 enrichment": 0.246}
{"Sequence": "AGUCCUGUGCUACACAUCGUAUGUACCGAAUCGGGGAAAGGGGUGGGGAAAAAGGGGAAAGUAUUAUGUUACGCCGUUCGGAUCUGCACU", "log2 enrichment": 0.595}
{"Sequence": "AGUCCUGUGCUACACAUCGUAUGUACCGAAUCGGGGUUUGGGGAGGGGUUUUUGGGGAAAGUAUUAUGUUACGCCGUUCGGAUCUGCACU", "log2 enrichment": 0.691}
{"Sequence": "CCUCAAGUCCUGUGCUACACAUCGUAUGUACCGAAUCGGGUGGGUGGGGUGGAAAGUAUUAUGUUACGCCGUUCGGAUCUGCACUUCCAG", "log2 enrichment": 1.33}
{"note": "For quick reference, copied from above (block 2):"}
{"Sequence": "GGCUCCUUUUAGUUUGUUGUCUUGCCCUACUGUGUAGCUCACUGACUGAGAAUAAAGAAUACAGCAAGGCUGCCUUUGUCUUUGUUUUUCCUGGCUGUGUGUAGCUGUGG", "RBNS enrichment (R)": 1.59}
{"Sequence": "CACACAAAAAAAAUGCAGACAUCCUUGUGAAUUUUGAGUGCUUAUGGGGUCAUCUGGUUAUUUAGGGCAUUGAGACUGGAGCCGUGGCUCAGAUGAUUGGGGCAGAAAAG", "RBNS enrichment (R)": 1.49}
{"Sequence": "GGAAGAGUGACCUGGCAUCUUGGAAAUCAUUGUGUGUCUUCAGGAGAAUGUGCAGUGUCUUGUAACAACUAAUUAUAAUGCAAAUUAGGGCUACAUUGUAAUCUGCUUUG", "RBNS enrichment (R)": 2.53}
{"Sequence": "CGAGAAAGAGAAGGAUGUUGUGCCGGAAGGACCCGUGCAGGAAGCUGAAACUGAGCAUCUUGCACAGGGCUCCGAGACUGUACAGGCUACCCCAGAGAGCCUUGAAGUUC", "RBNS enrichment (R)": 0.287}
